Assay results collected from several papers.
Lines come from different studies, so protocols differ. Values joined by “and” are separate records of one study, mostly repeats; a detail may differ. Numbers after ± are the reported error.
Eif4e: Eukaryotic translation initiation factor 4E (Eif4e, Mus musculus, UniProt P63073)
Chain of UniProt P63073 (whole entry, looked up): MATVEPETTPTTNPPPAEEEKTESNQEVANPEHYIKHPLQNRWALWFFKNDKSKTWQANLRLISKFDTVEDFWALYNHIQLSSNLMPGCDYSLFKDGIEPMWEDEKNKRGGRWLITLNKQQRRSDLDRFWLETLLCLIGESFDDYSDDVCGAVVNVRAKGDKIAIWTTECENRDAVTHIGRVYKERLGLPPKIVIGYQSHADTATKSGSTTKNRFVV
POLB: DNA polymerase beta (POLB, Homo sapiens, UniProt P06746)
CXCL8: Interleukin-8 (CXCL8, Homo sapiens, UniProt P10145)
Chain of UniProt P10145 (whole entry, looked up): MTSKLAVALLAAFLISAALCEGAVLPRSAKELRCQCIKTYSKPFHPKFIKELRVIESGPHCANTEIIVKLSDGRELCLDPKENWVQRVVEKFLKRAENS
Chain of UniProt P20248 (whole entry, looked up): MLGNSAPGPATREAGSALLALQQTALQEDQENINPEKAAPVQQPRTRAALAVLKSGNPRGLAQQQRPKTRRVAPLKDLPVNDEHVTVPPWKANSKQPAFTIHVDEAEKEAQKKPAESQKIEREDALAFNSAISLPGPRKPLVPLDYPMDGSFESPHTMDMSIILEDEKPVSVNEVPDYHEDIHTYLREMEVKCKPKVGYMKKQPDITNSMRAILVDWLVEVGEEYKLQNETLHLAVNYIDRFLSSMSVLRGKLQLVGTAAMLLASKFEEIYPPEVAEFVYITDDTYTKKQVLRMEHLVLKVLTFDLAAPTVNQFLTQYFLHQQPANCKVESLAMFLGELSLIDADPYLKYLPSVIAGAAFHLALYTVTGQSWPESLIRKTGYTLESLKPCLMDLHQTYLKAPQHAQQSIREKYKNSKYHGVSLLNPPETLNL
Chain of UniProt O95931 (whole entry, looked up): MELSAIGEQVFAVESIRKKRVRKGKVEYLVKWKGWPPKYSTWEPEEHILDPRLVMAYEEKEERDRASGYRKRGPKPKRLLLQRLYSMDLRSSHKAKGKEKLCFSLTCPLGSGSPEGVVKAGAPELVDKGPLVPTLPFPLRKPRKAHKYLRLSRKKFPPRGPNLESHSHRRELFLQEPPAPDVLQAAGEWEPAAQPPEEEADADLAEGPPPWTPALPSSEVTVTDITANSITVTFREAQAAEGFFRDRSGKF
Chain of UniProt A0A109QYD3 (whole entry, unmodified, looked up): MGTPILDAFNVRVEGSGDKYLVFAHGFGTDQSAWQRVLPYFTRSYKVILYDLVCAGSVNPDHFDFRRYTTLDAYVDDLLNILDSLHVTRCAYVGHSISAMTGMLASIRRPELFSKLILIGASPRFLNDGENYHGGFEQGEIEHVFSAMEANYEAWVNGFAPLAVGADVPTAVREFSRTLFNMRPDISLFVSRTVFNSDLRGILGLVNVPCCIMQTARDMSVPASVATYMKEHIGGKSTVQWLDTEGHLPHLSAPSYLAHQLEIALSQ
Chain of UniProt O00214 (whole entry, looked up): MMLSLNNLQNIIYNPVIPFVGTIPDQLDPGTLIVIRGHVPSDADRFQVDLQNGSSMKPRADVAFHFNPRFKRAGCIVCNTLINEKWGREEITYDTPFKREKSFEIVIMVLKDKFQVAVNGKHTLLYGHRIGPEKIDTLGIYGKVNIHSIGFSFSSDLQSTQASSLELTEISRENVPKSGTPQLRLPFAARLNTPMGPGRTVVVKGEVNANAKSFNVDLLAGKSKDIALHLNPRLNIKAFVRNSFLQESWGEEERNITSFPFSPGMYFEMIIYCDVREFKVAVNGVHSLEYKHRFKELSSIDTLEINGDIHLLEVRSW
Chain of UniProt P38169 (1-394, unmodified, looked up): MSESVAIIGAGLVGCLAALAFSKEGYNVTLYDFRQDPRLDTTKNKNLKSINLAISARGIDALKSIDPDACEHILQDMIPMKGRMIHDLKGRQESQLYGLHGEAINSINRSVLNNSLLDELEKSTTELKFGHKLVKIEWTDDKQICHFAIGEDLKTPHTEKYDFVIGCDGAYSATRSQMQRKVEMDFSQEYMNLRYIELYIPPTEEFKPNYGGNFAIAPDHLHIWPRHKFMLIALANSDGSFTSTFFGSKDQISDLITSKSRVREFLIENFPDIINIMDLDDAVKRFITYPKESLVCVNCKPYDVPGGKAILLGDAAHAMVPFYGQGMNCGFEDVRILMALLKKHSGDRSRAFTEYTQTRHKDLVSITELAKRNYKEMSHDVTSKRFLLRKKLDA

SMILES = C[n+]1cn(C2OC(COP(=O)([O-])OP(=O)(O)OP(=O)(O)OCC3OC(n4cnc5c(=O)[nH]c(N)nc54)C(O)C3O)C(O)C2O)c2nc(NCc3cc(-c4ccccc4)no3)[nH]c(=O)c21 (stereo not drawn); target = Eif4e; test = differential scanning fluorimetry; Kd = 2.61 µM
SMILES = O=C(CCc1cn[nH]c1)N1CCOC(CC(c2ccccc2)c2ccccc2)C1 (stereo not drawn); target = Troponin C, slow skeletal and cardiac muscles, with cTnI (TNNC1, Human, UniProt P63316, C35S/C84S/T53C); test = slowing of Ca2+ dissociation, stopped-flow fluorescence; setting = pH 7.0, 15 °C, IAANS-labelled chimera; Kd = 117 ± 17 µM
SMILES = CCc1cc2c3c(c1CC)O[C@H](CO)[C@H](O)[C@@H]3OC2; target = Galectin-8 (LGALS8, Homo sapiens, UniProt O00214); test = cell-free assay, FP; Kd = ~10000 µM
SMILES = O=C(O)C1CC1C(=O)c1ccc(Cl)c(Cl)c1 (stereo not drawn); target = Kynurenine 3-monooxygenase, residues 1-394 (Saccharomyces cerevisiae, UniProt P38169, R83A); test = binding, flavin fluorescence; setting = 25 °C, R83A variant; Kd = 3.1 ± 0.2 µM
SMILES = Nc1nc2c(ncn2[C@H]2C[C@H](O)[C@@H](COP(=O)(O)OP(=O)(O)[C@H](F)P(=O)(O)O)O2)c(=O)[nH]1; target = DNA polymerase beta (POLB, Homo sapiens, UniProt P06746, R183A); test = substrate, pre-steady-state kinetics; setting = incorporation opposite dC in gapped DNA; Kd = 6.8 ± 1 µM
SMILES = O=C(NCc1c(F)cccc1Cl)c1csc(-c2n[nH]c3ccccc23)c1; target = E3 ubiquitin-protein ligase NEDD4 (Homo sapiens, UniProt P46934); test = binding, MST; Kd = 0.0254 µM
SMILES = Nc1nc2c(ncn2[C@H]2C[C@H](O)[C@@H](COP(=O)(O)OP(=O)(O)C(F)(F)P(=O)(O)O)O2)c(=O)[nH]1; target = POLB; test = nucleotide binding, substrate, single turnover kinetics; setting = 37 °C, dG misincorporation opposite A; Kd = 1010 ± 197 µM
SMILES = NS(=O)(=O)c1c(F)c(F)c(S(=O)(=O)CCc2ccccc2)c(NCc2ccccc2)c1F; target = CA2 (Homo sapiens, UniProt P00918, A65S/F130A/I91T/L203N/N67K/V134S); setting = pH 7; Kd = 0.033 µM
SMILES = Nc1nc2c(ncn2C2CC(O)C(COP(=O)(O)OP(=O)(O)C(Cl)P(=O)(O)O)O2)c(=O)[nH]1 (mixture of isomers); target = DNA polymerase beta (POLB, Homo sapiens, UniProt P06746, I260M); test = nucleotide binding, substrate, single turnover kinetics; setting = 37 °C, dG misincorporation opposite A; Kd = 681 ± 304 µM
SMILES = CCN(CC)CCCC[C@H](NC(=O)[C@H](CC(C)C)NC(=O)[C@H](C)NC(=O)[C@H](Cc1ccccc1)NC(=O)c1ccc(C(C)(C)C)cc1)C(=O)N[C@@H](CO)C(=O)NCCOCCOCCOCCOCCOCCOCCOCCOCCOCCOCCOCCNC(=O)CCCC[C@@H]1SC[C@@H]2NC(=O)N[C@@H]21; target = Chromobox protein homolog 7 (Homo sapiens, UniProt O95931); test = binding, ITC; Kd = 0.22 µM
SMILES = CC(=O)N[C@@H]1[C@@H](O[C@@H]2O[C@H](C(=O)O)[C@@H](O[C@@H]3O[C@H](CO)[C@@H](O)[C@H](O[C@@H]4O[C@H](C(=O)O)[C@@H](O)[C@H](O)[C@H]4O)[C@H]3NC(C)=O)[C@H](O)[C@H]2O)[C@H](O)[C@@H](CO)O[C@H]1N=[N+]=[N-]; target = CXCL8; test = fluorescence polarization competition; Kd = no binding
SMILES = Nc1nc2c(ncn2[C@H]2C[C@H](O)[C@@H](COP(=O)(O)OP(=O)(O)[C@H](Cl)P(=O)(O)O)O2)c(=O)[nH]1; target = POLB; test = substrate, quench-flow kinetics; setting = pH 8.0, 37 °C, misincorporation opposite T in gapped DNA; Kd = 290 ± 20 µM
SMILES = C=CC(=O)Nc1cc(Nc2nccc(-n3ccc4nc(OC)ccc43)n2)c(OC)cc1N(C)CCN(C)C; target = EGFR (Homo sapiens, UniProt P00533); test = binding, competition with immobilised ligand; Kd = 0.00445 µM
SMILES = Nc1nc2c(ncn2[C@H]2C[C@H](O)[C@@H](COP(=O)(O)OP(=O)(O)CP(=O)(O)O)O2)c(=O)[nH]1; target = POLB; test = nucleotide binding, substrate, single turnover kinetics; setting = 37 °C, dG misincorporation opposite A; Kd = 1160 ± 189 µM
SMILES = CC[C@H](C)[C@H](NC(=O)[C@H](CC(C)C)NC(=O)[C@H](CCCNC(=N)N)NC(=O)c1ccc(CN2CCN(C)CC2)cc1)C(=O)N[C@@H](Cc1ccccc1)C(N)=O; target = Cyclin-A2 (CCNA2, Homo sapiens, UniProt P20248); test = binding, tryptophan fluorescence titration; setting = co-expressed with GroES-GroEL-Tig; Kd = > 6.5 µM and 6.77 µM
SMILES = CC[C@H](C)[C@@H]1NC(=O)[C@H](C)NC(=O)[C@H](C)NC(=O)[C@H]([C@@H](C)O)NC(=O)[C@H](Cc2ccccc2)NC(=O)[C@@H]2CSSC[C@@H]3NC(=O)[C@H](C(C)C)NC(=O)[C@H](CCCCN)NC(=O)[C@H](CO)NC(=O)[C@H](CCCCN)NC(=O)[C@@H]4CSSC[C@H](NC(=O)[C@H](CO)NC(=O)[C@H](CCC(=O)O)NC(=O)CNC(=O)[C@H](CSSC[C@H](NC(=O)CNC1=O)C(=O)N[C@@H](CO)C(=O)N4)NC(=O)[C@@H]1CCCN1C(=O)[C@H](Cc1ccccc1)NC(=O)CNC(=O)[C@H](CC(N)=O)NC(=O)[C@H](CCCCN)NC(=O)[C@H](Cc1ccc(O)cc1)NC3=O)C(=O)N[C@@H](C)C(=O)N[C@@H](Cc1ccc(O)cc1)C(=O)N[C@@H](CC(C)C)C(=O)N1CCC[C@H]1C(=O)N2; target = POPC/POPE lipid membrane; test = membrane binding, surface plasmon resonance; system = POPC/POPE 80:20 vesicles; setting = pH 7.4; Kd = 29.5 ± 1.29 µM
SMILES = Cc1cn([C@H]2C[C@H](O)[C@@H](COP(=O)(O)OP(=O)(O)C(Cl)(Cl)P(=O)(O)O)O2)c(=O)[nH]c1=O; target = POLB; test = dNTP binding, substrate, single-turnover kinetics; system = single-nucleotide gapped DNA; setting = 37 °C, wild type, correct incorporation, added: dTTP opposite template A; Kd = 44.7 ± 20.2 µM
SMILES = CC1=C[C@H](O/C=C2/C(=O)O[C@@H]3c4ccccc4C[C@H]23)OC1=O (racemic); target = RMS3 (Lathyrus oleraceus, UniProt A0A109QYD3, S96C); test = binding, fluorescence; Kd = 154 µM
SMILES = CC[C@H](C)[C@@H]1NC(=O)[C@H](C)NC(=O)[C@H](C)NC(=O)[C@H]([C@@H](C)O)NC(=O)[C@H](Cc2ccccc2)NC(=O)[C@@H]2CSSC[C@@H]3NC(=O)[C@H](C(C)C)NC(=O)[C@H](CCCCN)NC(=O)[C@H](C)NC(=O)[C@H](CCCCN)NC(=O)[C@@H]4CSSC[C@H](NC(=O)[C@H](CO)NC(=O)[C@H](CCC(=O)O)NC(=O)CNC(=O)[C@H](CSSC[C@H](NC(=O)CNC1=O)C(=O)N[C@@H](CO)C(=O)N4)NC(=O)[C@@H]1CCCN1C(=O)[C@H](Cc1ccccc1)NC(=O)CNC(=O)[C@H](CC(N)=O)NC(=O)[C@H](CCCCN)NC(=O)[C@H](Cc1ccc(O)cc1)NC3=O)C(=O)N[C@@H](C(C)C)C(=O)N[C@@H](Cc1ccc(O)cc1)C(=O)N[C@@H](CC(C)C)C(=O)N1CCC[C@H]1C(=O)N2; target = POPC/POPE lipid membrane; test = membrane binding, surface plasmon resonance; system = POPC/POPE 80:20 vesicles; setting = pH 7.4; Kd = 4.58 ± 0.07 µM
SMILES = CC(=O)N[C@@H]1[C@@H](O[C@@H]2O[C@H](C(=O)O)[C@@H](O[C@@H]3O[C@H](COS(=O)(=O)O)[C@@H](OS(=O)(=O)O)[C@H](O[C@@H]4O[C@H](C(=O)O)[C@@H](O[C@@H]5O[C@H](COS(=O)(=O)O)[C@@H](OS(=O)(=O)O)[C@H](O[C@@H]6O[C@H](C(=O)O)[C@@H](OS(=O)(=O)O)[C@H](OS(=O)(=O)O)[C@H]6OS(=O)(=O)O)[C@H]5NC(C)=O)[C@H](OS(=O)(=O)O)[C@H]4OS(=O)(=O)O)[C@H]3NC(C)=O)[C@H](OS(=O)(=O)O)[C@H]2OS(=O)(=O)O)[C@H](OS(=O)(=O)O)[C@@H](COS(=O)(=O)O)O[C@H]1N=[N+]=[N-]; target = CXCL8; test = ligand displacement, FP; Kd = 1.51 µM
SMILES = C[n+]1cn([C@@H]2O[C@H](COP(=O)([S-])OP(=O)(O)OP(=O)(O)OC[C@H]3O[C@@H](n4cnc5c(=O)[nH]c(N)nc54)[C@H](O)[C@@H]3OC(=O)NCCCCCCN)[C@@H](O)[C@H]2O)c2nc(N)nc(O)c21 (mixture of isomers); target = Eif4e; test = cap analogue binding, pyrene fluorescence competition; setting = 20 °C; Kd = 0.242 ± 0.045 µM

Repeated from above:
SMILES = O=C(NCc1c(F)cccc1Cl)c1csc(-c2n[nH]c3ccccc23)c1; target = E3 ubiquitin-protein ligase NEDD4 (Homo sapiens, UniProt P46934); test = binding, MST; Kd = 0.0254 µM
